# Assay results from different studies.
# Every numbered part comes from another study and shows a few of its results, in no order.
# Sequence of UniProt P41743 (whole entry, looked up): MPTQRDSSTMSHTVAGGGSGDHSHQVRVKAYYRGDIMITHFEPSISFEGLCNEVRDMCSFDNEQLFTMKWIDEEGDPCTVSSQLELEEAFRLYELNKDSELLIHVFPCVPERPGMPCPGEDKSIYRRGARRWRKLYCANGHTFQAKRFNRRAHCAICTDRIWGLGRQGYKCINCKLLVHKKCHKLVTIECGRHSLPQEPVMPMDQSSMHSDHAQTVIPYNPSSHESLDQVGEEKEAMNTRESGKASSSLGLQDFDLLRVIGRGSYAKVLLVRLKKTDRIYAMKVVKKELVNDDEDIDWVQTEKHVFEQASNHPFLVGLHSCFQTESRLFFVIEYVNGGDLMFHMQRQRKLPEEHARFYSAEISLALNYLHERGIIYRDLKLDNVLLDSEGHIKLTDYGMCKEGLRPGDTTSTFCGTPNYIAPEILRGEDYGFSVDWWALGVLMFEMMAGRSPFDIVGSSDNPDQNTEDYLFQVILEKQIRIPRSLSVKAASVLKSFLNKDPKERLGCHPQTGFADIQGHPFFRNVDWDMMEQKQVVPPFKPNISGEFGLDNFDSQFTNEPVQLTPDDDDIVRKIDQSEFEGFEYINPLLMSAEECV
# Sequence of UniProt P68400 (whole entry, looked up): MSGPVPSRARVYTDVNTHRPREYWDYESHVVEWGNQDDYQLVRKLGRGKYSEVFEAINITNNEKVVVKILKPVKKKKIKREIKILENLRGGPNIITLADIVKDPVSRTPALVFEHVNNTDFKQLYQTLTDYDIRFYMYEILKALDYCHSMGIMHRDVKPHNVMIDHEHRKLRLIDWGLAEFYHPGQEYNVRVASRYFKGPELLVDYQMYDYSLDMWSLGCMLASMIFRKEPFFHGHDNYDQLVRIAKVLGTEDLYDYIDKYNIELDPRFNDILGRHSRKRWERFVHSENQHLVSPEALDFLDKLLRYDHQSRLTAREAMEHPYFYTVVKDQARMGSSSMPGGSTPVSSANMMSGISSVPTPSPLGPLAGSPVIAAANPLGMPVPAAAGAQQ
# Sequence of UniProt Q5S007 (whole entry, looked up): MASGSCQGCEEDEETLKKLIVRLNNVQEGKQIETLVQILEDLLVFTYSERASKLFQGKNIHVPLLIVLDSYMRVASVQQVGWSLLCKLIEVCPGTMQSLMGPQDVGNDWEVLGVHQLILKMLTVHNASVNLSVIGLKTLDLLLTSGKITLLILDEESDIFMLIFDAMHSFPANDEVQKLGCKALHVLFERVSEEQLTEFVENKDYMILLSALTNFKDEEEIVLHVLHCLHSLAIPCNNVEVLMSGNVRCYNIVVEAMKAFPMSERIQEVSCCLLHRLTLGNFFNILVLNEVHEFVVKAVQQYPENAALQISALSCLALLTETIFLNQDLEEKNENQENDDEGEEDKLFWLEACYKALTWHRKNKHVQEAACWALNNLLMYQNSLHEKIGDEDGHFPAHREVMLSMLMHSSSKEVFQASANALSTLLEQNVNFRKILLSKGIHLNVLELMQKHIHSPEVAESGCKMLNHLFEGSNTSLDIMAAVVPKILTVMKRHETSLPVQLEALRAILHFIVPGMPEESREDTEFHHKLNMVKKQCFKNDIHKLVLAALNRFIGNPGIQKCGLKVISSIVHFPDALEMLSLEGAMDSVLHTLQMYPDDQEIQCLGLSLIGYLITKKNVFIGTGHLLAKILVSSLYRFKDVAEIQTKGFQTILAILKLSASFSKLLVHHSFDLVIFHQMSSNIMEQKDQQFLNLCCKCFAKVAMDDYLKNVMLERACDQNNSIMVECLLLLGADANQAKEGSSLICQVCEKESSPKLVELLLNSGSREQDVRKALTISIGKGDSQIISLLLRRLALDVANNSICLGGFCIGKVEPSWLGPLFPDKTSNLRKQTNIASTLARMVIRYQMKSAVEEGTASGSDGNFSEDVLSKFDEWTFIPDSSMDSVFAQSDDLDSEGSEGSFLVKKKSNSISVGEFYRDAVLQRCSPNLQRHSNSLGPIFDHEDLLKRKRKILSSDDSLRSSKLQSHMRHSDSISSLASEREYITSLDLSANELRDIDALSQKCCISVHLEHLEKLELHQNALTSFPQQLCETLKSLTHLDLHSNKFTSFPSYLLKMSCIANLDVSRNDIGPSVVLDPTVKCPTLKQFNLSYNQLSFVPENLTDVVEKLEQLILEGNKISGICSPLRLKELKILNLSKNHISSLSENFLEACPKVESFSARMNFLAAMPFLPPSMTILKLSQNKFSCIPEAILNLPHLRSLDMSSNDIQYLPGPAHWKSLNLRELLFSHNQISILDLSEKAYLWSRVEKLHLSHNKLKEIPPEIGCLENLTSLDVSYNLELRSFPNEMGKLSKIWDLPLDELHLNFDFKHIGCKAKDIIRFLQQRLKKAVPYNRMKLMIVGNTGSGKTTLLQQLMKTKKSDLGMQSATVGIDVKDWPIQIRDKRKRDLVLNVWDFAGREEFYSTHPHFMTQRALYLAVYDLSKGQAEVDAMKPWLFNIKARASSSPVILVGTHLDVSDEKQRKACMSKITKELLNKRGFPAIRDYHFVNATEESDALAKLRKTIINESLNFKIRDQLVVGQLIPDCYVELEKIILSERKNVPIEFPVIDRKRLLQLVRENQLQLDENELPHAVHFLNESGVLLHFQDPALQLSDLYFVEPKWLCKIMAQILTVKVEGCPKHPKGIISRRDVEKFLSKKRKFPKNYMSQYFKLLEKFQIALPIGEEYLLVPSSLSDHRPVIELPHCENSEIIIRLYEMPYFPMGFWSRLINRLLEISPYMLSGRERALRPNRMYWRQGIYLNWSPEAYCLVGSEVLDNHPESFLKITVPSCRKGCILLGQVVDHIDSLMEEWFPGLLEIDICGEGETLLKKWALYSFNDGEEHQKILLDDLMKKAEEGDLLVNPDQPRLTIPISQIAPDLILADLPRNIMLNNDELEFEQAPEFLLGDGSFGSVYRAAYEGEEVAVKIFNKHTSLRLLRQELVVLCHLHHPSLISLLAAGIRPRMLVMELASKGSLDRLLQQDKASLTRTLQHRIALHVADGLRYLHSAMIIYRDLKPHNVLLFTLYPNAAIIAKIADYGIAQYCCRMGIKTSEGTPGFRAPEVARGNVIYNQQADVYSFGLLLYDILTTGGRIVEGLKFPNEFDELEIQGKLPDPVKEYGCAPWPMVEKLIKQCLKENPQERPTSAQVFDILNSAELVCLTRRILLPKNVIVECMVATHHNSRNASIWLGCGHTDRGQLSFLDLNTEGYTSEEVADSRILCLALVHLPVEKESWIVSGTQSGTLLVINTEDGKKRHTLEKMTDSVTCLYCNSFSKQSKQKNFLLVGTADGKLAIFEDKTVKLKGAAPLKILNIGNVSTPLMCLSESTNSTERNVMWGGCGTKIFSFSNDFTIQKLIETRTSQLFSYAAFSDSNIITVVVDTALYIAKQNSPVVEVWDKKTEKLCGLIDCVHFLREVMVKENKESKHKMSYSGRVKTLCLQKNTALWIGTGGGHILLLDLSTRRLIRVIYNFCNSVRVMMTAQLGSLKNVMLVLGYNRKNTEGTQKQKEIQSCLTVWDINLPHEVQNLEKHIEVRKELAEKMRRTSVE
# Sequence of UniProt Q9Y243 (whole entry, looked up): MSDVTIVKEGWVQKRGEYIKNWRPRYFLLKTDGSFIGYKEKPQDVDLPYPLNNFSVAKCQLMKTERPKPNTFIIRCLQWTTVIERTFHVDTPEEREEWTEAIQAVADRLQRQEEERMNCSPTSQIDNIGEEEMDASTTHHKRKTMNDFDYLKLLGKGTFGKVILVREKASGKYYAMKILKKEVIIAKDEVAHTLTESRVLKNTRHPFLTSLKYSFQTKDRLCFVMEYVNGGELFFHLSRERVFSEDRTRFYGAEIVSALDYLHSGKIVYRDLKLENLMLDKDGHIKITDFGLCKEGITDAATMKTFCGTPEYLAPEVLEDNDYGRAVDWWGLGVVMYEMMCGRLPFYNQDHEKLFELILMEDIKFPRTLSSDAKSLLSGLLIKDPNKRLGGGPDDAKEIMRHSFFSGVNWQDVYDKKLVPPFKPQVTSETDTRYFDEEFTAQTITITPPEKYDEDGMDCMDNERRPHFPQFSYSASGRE
# Sequence of UniProt P50750 (whole entry, looked up): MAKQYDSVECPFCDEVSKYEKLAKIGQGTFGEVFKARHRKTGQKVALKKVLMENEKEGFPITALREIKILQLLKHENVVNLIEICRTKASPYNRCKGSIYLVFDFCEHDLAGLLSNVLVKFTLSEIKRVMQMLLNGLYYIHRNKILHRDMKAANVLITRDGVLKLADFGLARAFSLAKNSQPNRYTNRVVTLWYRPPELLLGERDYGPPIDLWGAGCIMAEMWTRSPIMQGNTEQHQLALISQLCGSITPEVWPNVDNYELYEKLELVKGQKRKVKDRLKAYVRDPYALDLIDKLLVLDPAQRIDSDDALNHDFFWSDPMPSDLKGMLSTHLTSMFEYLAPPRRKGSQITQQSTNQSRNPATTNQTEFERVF
# Sequence of UniProt P07948 (whole entry, looked up): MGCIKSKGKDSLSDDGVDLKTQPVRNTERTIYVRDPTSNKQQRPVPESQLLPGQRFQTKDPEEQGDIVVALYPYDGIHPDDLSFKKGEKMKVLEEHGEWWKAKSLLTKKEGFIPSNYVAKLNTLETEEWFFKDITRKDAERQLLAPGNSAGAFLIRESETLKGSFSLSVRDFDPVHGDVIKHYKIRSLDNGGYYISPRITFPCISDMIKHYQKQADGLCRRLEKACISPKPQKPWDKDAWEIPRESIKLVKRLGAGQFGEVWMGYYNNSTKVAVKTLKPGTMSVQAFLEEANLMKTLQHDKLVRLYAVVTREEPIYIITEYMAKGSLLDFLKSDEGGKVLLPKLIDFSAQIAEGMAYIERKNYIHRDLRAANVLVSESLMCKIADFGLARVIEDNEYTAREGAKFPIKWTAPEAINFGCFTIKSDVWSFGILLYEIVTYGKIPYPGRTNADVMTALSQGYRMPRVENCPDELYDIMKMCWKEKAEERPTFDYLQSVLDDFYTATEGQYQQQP

# Study 1 — cell line: sample G normal colon organoids; technique: CellTiter-Glo; medium: human patient-derived organoids; tested at: 0.1 µM; time: 4 days; baseline: DMSO control
Compound,viability [%]
CNC(=O)c1ccc(Nc2ncc(C(F)(F)F)c(NCc3nccnc3N(C)S(C)(=O)=O)n2)cc1,91
CC(C)(C)OC(=O)N1CCCC1CNC1CCC(c2cc(F)ccc2F)(S(=O)(=O)c2ccc(Cl)cc2)CC1 (centres unmarked),114
Cc1ccc(-c2cnc([C@@]3(O)CC[C@H](C(=O)O)C(C)(C)C3)s2)cc1Nc1cccc(C(F)(F)F)n1,103
Cc1cc(C)c(-n2ccn3nc(-c4cccnc4)cc23)cc1NC(=O)c1cc(C#N)cc(S(F)(F)(F)(F)F)c1,116
O=S(=O)(NC1CCC(c2cc(F)ccc2F)(S(=O)(=O)c2ccc(Cl)cc2)CC1)C(F)(F)F (centres unmarked),109
Cc1cc(Nc2nccc(C)n2)cc(-c2cnc([C@@]3(O)CC[C@H](C(=O)O)C(C)(C)C3)s2)c1,114
CN(C)C(=O)Cn1cc(-c2nc([C@@](C)(c3ccc(-c4cnc(N)nc4)cc3)C3CC3)no2)cn1,111
COc1cccc(CNC(=O)c2nc3scc(COCc4ccc(C(=O)O)cc4)c3c(=O)[nH]2)c1,116
Cc1c(NC(=O)c2cc(C(N)=O)nc3cc(F)ccc23)c(C(F)(F)F)nn1Cc1ccc(C(C)(C)C)cc1,82.2

# Study 2 — SMILES: COc1cccc(-c2cc(=O)c3ccccc3o2)c1N; read-out: enzyme activity; mode: inhibitor; tested at: 0.5 µM; baseline: control
target,remaining activity [%]
"PLK2 (Homo sapiens, UniProt Q9NYY3)",92.5
"BTK (Homo sapiens, UniProt Q06187)",83.7
"PRKG1 (Homo sapiens, UniProt Q13976)",111
"AKT3 (Homo sapiens, UniProt Q9Y243)",101
"CSNK1A1 (Homo sapiens, UniProt P48729)",95.6
"LRRK2 (Homo sapiens, UniProt Q5S007)",101
"MAP2K6 (Homo sapiens, UniProt P52564)",92.4
"MAP3K10 (Homo sapiens, UniProt Q02779)",90
"LYN (Homo sapiens, UniProt P07948)",94.6
"CSNK2A1 (Homo sapiens, UniProt P68400)",94.9
"MAPK13 (Homo sapiens, UniProt O15264)",99.8
"MKNK2 (Homo sapiens, UniProt Q9HBH9)",108
"STK38 (Homo sapiens, UniProt Q15208)",97.4
"NEK4 (Homo sapiens, UniProt P51957)",93.4
"Cyclin-dependent kinase 9, with cyclin T1 (CDK9, Homo sapiens, UniProt P50750)",93.6
"KIT (Homo sapiens, UniProt P10721)",92.2
"WNK2 (Homo sapiens, UniProt Q9Y3S1)",122
"PRKCD (Homo sapiens, UniProt Q05655)",106
"CHEK1 (Homo sapiens, UniProt O14757)",103
"EPHA5 (Homo sapiens, UniProt P54756)",97.9
"IRAK4 (Homo sapiens, UniProt Q9NWZ3)",86.4
"PRKCI (Homo sapiens, UniProt P41743)",97.3
"MAPK12 (Homo sapiens, UniProt P53778)",95.5
"MAP4K2 (Homo sapiens, UniProt Q12851)",81.7

# Study 3 — host: human; medium: microsomes or S9; tested at: 2 µM; time: 0.5 h
Structure (SMILES),remaining compound
C[C@H]1CN2C[C@H](O)CC2CN1Cc1cc2c(cc1Cl)OCO2 (some centres unmarked),79.2%
COC(=O)N(C)CCCC1(C)C(=O)N(C)c2ccc(O)cc21 (centres unmarked),61.4%
CC(C)COc1cc(=O)n2c(c1C(=O)NCCCN1CCCCC1)CCCCC2,92.9%
COc1ccc(-n2ccc3cc(N4CCCCC4)ccc32)cc1Cl,95.9%
c1ccc2c(c1)n(CCN1CCCC1)c1nc(-c3ccc4c(c3)OCO4)cn21,15.1%
CCN(CC)C(=O)Cn1nc(S(C)(=O)=O)nc1-c1ccccc1OC,90.2%
CC(=O)c1c(NCc2ccc(Cl)cc2)n(C)c2ccccc2c1=O,3.73%
COC(=O)c1sccc1N1C(=O)C/C(=C/c2c[nH]c3ncccc23)C1=O,37.1%
CCc1ncnc(Nc2cnn(Cc3nnc4n3CCCC4)c2)c1F,94.3%
CCCOc1cccc([C@@H]2c3ccc(OC)cc3OC(=O)[C@H]2C(C)(C)O)c1,57.9%
O=C(OCc1cc(Cl)cc2c1OCOC2)c1cc2ccccc2[nH]1,> 99.9%
Clc1ncccc1-c1nc2ccccc2c2c(Br)cnn12,23.5%
CCC1(N2CCN(C(=O)c3sccc3C)CC2)CCN(S(C)(=O)=O)C1 (centres unmarked),57.8%

# Study 4 — cell line: HaCaT; tested at: 100 µM; time: 18 h
Compound,viability
O=C(C1CCCCC1)N1CC(=O)N2CCc3ccccc3C2C1 (centres unmarked),96.7%
CCCCN(CCCC)CC(O)c1cc(Cl)cc2c1-c1ccc(Cl)cc1/C2=C/c1ccc(Cl)cc1 (centres unmarked),17.4%
Cc1[nH]c2ccccc2c1CCNCc1ccc(/C=C/C(=O)NO)cc1,19.3%
CN1CCC[C@@H]1Cc1c[nH]c2ccc(CCS(=O)(=O)c3ccccc3)cc12,95.7%
C#CCN[C@@H]1CCc2ccccc21,115%
Cc1ccc(/C(=C\CN2CCCC2)c2ccccn2)cc1,114%
CN(Cc1cc(Br)cc(Br)c1N)C1CCCCC1,25.5%
CN(C)CCC=C1c2ccccc2C=Cc2ccccc21,36.4%
O=c1oc2cc(O)ccc2s1,115%
O=C1c2c(O)cccc2Cc2cccc(O)c21,99.4%
C[N+]1(C)CCC(=C(c2ccccc2)c2ccccc2)CC1,124%
O=C(O)c1cc(/N=N/c2ccc(O)c(C(=O)O)c2)ccc1O,113%
CCn1cc(C(=O)O)c(=O)c2cc(F)c(N3CCNC(C)C3)c(F)c21 (centres unmarked),107%

# Some of these lines once more (study 1):
Compound,viability [%]
CNC(=O)c1ccc(Nc2ncc(C(F)(F)F)c(NCc3nccnc3N(C)S(C)(=O)=O)n2)cc1,91
CC(C)(C)OC(=O)N1CCCC1CNC1CCC(c2cc(F)ccc2F)(S(=O)(=O)c2ccc(Cl)cc2)CC1 (centres unmarked),114
Cc1ccc(-c2cnc([C@@]3(O)CC[C@H](C(=O)O)C(C)(C)C3)s2)cc1Nc1cccc(C(F)(F)F)n1,103
Cc1cc(C)c(-n2ccn3nc(-c4cccnc4)cc23)cc1NC(=O)c1cc(C#N)cc(S(F)(F)(F)(F)F)c1,116
O=S(=O)(NC1CCC(c2cc(F)ccc2F)(S(=O)(=O)c2ccc(Cl)cc2)CC1)C(F)(F)F (centres unmarked),109
Cc1cc(Nc2nccc(C)n2)cc(-c2cnc([C@@]3(O)CC[C@H](C(=O)O)C(C)(C)C3)s2)c1,114
CN(C)C(=O)Cn1cc(-c2nc([C@@](C)(c3ccc(-c4cnc(N)nc4)cc3)C3CC3)no2)cn1,111
COc1cccc(CNC(=O)c2nc3scc(COCc4ccc(C(=O)O)cc4)c3c(=O)[nH]2)c1,116
Cc1c(NC(=O)c2cc(C(N)=O)nc3cc(F)ccc23)c(C(F)(F)F)nn1Cc1ccc(C(C)(C)C)cc1,82.2
